Published values collected from several papers.
Protocols differ between the studies behind these lines. ± marks the error that the study gave.

Structure (SMILES)	assay	test system	setting	solubility
CC[C@H]1OC(=O)[C@H](C)[C@@H](O[C@H]2C[C@@](C)(OC)[C@@H](O)[C@H](C)O2)[C@H](C)[C@@H](O[C@@H]2O[C@H](C)C[C@H](N(C)C)[C@H]2O)[C@](C)(O)C[C@@H](C)C(=O)[C@H](C)[C@@H](O)[C@]1(C)O	–	HBSS	18 h, pH 7.4	661 µM
CS(=O)(=O)c1ncn2c(NCc3c(F)ccc4c3CCO4)ncc(-c3ccc(C4CC4)nc3)c12	–	FeSSIF	–	< 1 µg/mL
CN(Cc1ccc(C2(C(F)(F)F)CC2)cc1)Cc1cccc2ccccc12.Cl	–	PBS	2 h, pH 7.4, 25 °C, 2% DMSO	3 µM
COc1ccccc1NC(=O)CSc1nnc(-c2ccc(F)cc2)n1C	–	aqueous buffer	pH 7.4	2.66 µg/mL
CC(C)(C)C[C@@H]1COC[C@H](c2ccc(C#N)cc2)N1	shake-flask from DMSO stock	aqueous buffer	16 h, pH 6.8, LC-HRMS quantitation	> 442 µM
O=S(=O)(c1ccc(-c2ccc3nccc(Nc4cccnc4)c3c2)cc1)N1CCOCC1	thermodynamic	aqueous medium	–	9 µM
CCOC(=O)N1C[C@@H](c2cccnc2)N[C@@H](c2ccc(C#N)cc2)C1	shake-flask, LC-HRMS	aqueous buffer	16 h, pH 6.8	> 750 µM
COc1ccc(C(=O)CSc2nnc(-c3ccc(OC)c(OC)c3)n2-c2ccccc2)cc1	–	aqueous buffer	pH 7.4	< 4.95 µg/mL
CCOC(=O)N1C[C@@H](C2CCOCC2)N[C@@H](c2cccc(OC)c2)C1	shake-flask, LC-HRMS	aqueous buffer	16 h, pH 6.8	> 750 µM
O=C(Cn1cnc([N+](=O)[O-])n1)Nc1ccc(N2CCOCC2)c(Cl)c1	–	aqueous buffer	pH 7.4	1.57 µg/mL
Clc1nc(SCc2ccccc2)c2[nH]cnc2n1	UV absorbance	culture medium	stock diluted to 0.60 mM	57 µM
O=C(NCCN1CCCC1)c1cc(-c2ccc(CN3CCOCC3)cc2)nc2ccc(F)cc12	–	simulated gastric fluid	4 h, pH 1.2, 37 °C, relative to free base	> 6490 µM
COCC(C)Nc1ccnc(Nc2cccc(-c3cccnc3)c2)n1 (stereo not drawn)	–	citrate phosphate-buffered saline	18 h, pH 7.4, 1% DMSO	59.1 ± 3.6 µM
Cc1[nH]c(/C=C2\N=C(c3ccc[nH]3)C3=C2OCCO3)cc1Cc1ccc(OC(F)(F)F)cc1.Cl	–	potassium phosphate buffer	1.5 h, pH 7.4, room temperature	48.8 µM
O=C(Cc1ccc(OCCN2CCCC2)cc1)Nc1cc(C2CC2)[nH]n1	–	aqueous buffer	pH 7.4	> 2290 µg/mL
COc1cccc2c(NCc3ccccc3)nc(-n3c(N)nc4ccccc43)nc12	–	aqueous buffer	pH 6.2	0.09 µg/mL
CCOC(=O)N1C[C@@H](c2ccc(C)nc2)N[C@@H](C2CCOCC2)C1	shake-flask, LC-HRMS	aqueous buffer	16 h, pH 6.8	> 750 µM
CC1(CNC(=O)c2ccc(-c3ccc(Br)cc3)cc2)NC(=O)NC1=O (stereo not drawn)	–	aqueous buffer	pH 7.4	< 2.87 µg/mL
C=CCOc1ccc([C@H]2CN(C(=O)OCC)C[C@@H](c3cc(O)c(O)c(Cl)c3)N2)cc1	shake-flask, LC-HRMS	aqueous buffer	16 h, pH 6.8	< 4 µM
COc1cc(OC)c2c(=O)c(OC)c(-c3ccc(OC)c(OC)c3)oc2c1	HPLC	ethanol:butylene glycol 75:25	–	13260 ± 56 ppm
Cn1cc([C@H]2COC[C@@H](c3ccc(C(C)(C)C)cc3)N2)cn1	shake-flask, LC-HRMS	aqueous buffer	16 h, pH 6.8	> 750 µM
COc1cccc(NC(=O)CSc2nnnn2C)c1	–	aqueous buffer	pH 7.4	48.6 µg/mL
Cc1ccc([C@H]2COC[C@@H](c3cccc(C(F)(F)F)c3)N2)c(O)c1	shake-flask, LC-HRMS	aqueous buffer	16 h, pH 6.8	< 4 µM
NC[C@H](NC(=O)c1ccc(C#CC#Cc2ccccc2)cc1)C(=O)NO	–	aqueous buffer	pH 7.4	< 2.48 µg/mL

Some of these lines once more:
Structure (SMILES)	assay	test system	setting	solubility
COc1ccccc1NC(=O)CSc1nnc(-c2ccc(F)cc2)n1C	–	aqueous buffer	pH 7.4	2.66 µg/mL
CCOC(=O)N1C[C@@H](c2ccc(C)nc2)N[C@@H](C2CCOCC2)C1	shake-flask, LC-HRMS	aqueous buffer	16 h, pH 6.8	> 750 µM
